Assay results pooled from the literature.
Each line is one published result; not all experiments were run side by side.
LCK: Tyrosine-protein kinase Lck (LCK, Homo sapiens, UniProt P06239)

Compound | target | test | setting | scale | endpoint | value
COc1ccc(C(=O)/C=C/c2ccccc2-c2c[nH]c3ccc(C#N)cc23)c(O)c1 | LCK | enzyme activity, inhibitor | 20 µM |  | inhibition | 27%
Cc1ccc(C)c(-c2ccc3nc(NC(=O)C4CCCCC4)nn3c2)c1 | LCK | enzyme activity, Dundee kinase panel | 10 µM |  | remaining activity | 79%
COc1c(OCCCN2CCOCC2)ccc2c1N=C(NC(=O)c1cnc(N)nc1)N1CCN=C21 | LCK | kinase activity, inhibitor | 1 µM | relative to: untreated control | remaining activity | 93%
COc1ccc(C#CC2=C[C@H]3C[C@@]4(OC(=O)C=C24)[C@H]2CC[C@H](C(OC)OC)N32)cc1 | LCK | enzyme activity, inhibitor | 10 µM |  | inhibition | -17%
O=C(Cc1ccc(OCc2ccccc2)cc1)NC1(C(=O)O)CCN(C(=O)c2ccc(-c3cccc(Cl)c3)cc2)CC1 | LCK | enzyme activity, inhibitor | 10 µM |  | activity vs control | 128%
C=CC(=O)Nc1cccc(-c2cnc3[nH]cc(C(=O)NC(C)(C)C)c3n2)c1 | LCK | enzyme activity, inhibitor | 0.1 µM |  | inhibition | 13%
Nc1nc(Nc2ccccc2)sc1C(=O)c1ccccc1 | LCK | enzyme activity, inhibitor | 10 µM |  | remaining activity | 53%
COc1ccc(NC(=O)Nc2ccc3c(c2)C(=O)N(C(C)CO)CC(C)C(CN(C)Cc2ccc4c(c2)OCO4)O3)cc1 (stereo not shown) | Tyrosine-protein kinase Lck, activated (LCK, Homo sapiens, UniProt P06239) | kinase activity | 0.03 µM | relative to: control | remaining activity | 92%
NC(=O)C[C@H]1CCc2sc3ncnc(O[C@H]4CC[C@H](N5CCOCC5)CC4)c3c21 | LCK | enzyme activity, inhibitor | 10 µM |  | inhibition | 11%
CCN1CCN(Cc2ccc(C(=O)Nc3ccc(C)c(NCc4cnc5[nH]ccc5c4OC)c3)cc2C(F)(F)F)CC1 | LCK | binding, competition with immobilised ligand | 1 µM |  | remaining binding | 0.3%
Cc1cccc(-c2ccc3nc(NC(=O)C4CCCO4)nn3c2)c1 (stereo not shown) | LCK | enzyme activity, Dundee kinase panel | 10 µM |  | remaining activity | 71%
CN1CCN(Cc2ccc(-c3ccc(CO[C@H]4CCC[C@@H]4NC(=O)c4cc(-c5cnn(C)c5)cnc4N)cc3)cc2)CC1 | LCK | enzyme activity, inhibitor | 0.1 µM |  | inhibition | 6%
C=CC(=O)N1CCCC(n2c(=O)c3ncccc3n(Cc3ccc(Oc4ccccc4)cc3)c2=O)C1 (stereo not shown) | LCK | cell-free assay, competition with immobilised ligand | 1 µM |  | remaining binding | 100%
Cc1ccc(-c2c(/C=C(\C#N)C(=O)NC(C)C)n(CCCO)c3ncnc(N)c23)cc1 | LCK | cell-free assay, competition with immobilised ligand | 1 µM |  | remaining binding | 37%
CNC(=O)C[C@H](Cc1ccc(C#N)cc1)NC(=O)c1cc(-c2ccc(CN[C@H](C)c3ccc(C)cc3)o2)ccc1Cl | Tyrosine-protein kinase Lck, phosphorylated (LCK, Homo sapiens, UniProt P06239) | enzyme activity, inhibitor | 1 µM |  | activity vs control | 94%
Cc1cccc(O[C@H]2CCC[C@@H](C(C)CNCc3ccncc3)C2)c1 (relative stereo) | LCK | enzyme activity, inhibitor | 1 µM |  | inhibition | 4%
C[C@H]1CN(C(=O)c2cn(-c3ccnc(N)n3)c3cc(C#CC4(O)CCCCC4)ccc23)CCN1 | LCK | enzyme activity, inhibitor, FRET | 1 µM |  | inhibition | 7%
Cc1[nH]nc2c1N=C(c1ccccc1Cl)c1cnc(N3CCOCC3)cc1N2 | LCK | enzyme activity, inhibitor | 0.5 µM |  | inhibition | 6.7%
C=CC(=O)N1Cc2nc(-c3cc(-c4cc(Cl)cnc4Cl)c(F)cc3F)n(-c3ccncn3)c2C1 | LCK | enzyme activity, inhibitor | 1 µM |  | inhibition | -0.5%
CNC1C[S+]2CC[S+]3CC[S+](C1)[Ru-4]321([N]=C=S)[n]2c3ccc(OC)cc3c3c4c(c5cc(F)c[n+]1c5c32)C(=O)NC4=O (stereo not shown) | LCK | KinomeScan | 0.1 µM | relative to: untreated | remaining binding | 98%
CNC(=O)C1CCN(c2cc(C)c(F)cc2NC(=O)c2ccc(-c3cc(O)ccc3C)c(C)c2)CC1 | LCK | binding, competition with immobilised ligand | 1 µM |  | remaining binding | 2.4%
COc1ccc(O)cc1-c1c[nH]c2ncc(-c3cncc(C(=O)N(C)C)c3)cc12 | LCK | binding, competition with immobilised ligand | 0.2 µM |  | inhibition | 36.7%

Some of these lines once more:
Compound | target | test | setting | scale | endpoint | value
COc1ccc(C(=O)/C=C/c2ccccc2-c2c[nH]c3ccc(C#N)cc23)c(O)c1 | LCK | enzyme activity, inhibitor | 20 µM |  | inhibition | 27%
Cc1ccc(C)c(-c2ccc3nc(NC(=O)C4CCCCC4)nn3c2)c1 | LCK | enzyme activity, Dundee kinase panel | 10 µM |  | remaining activity | 79%
COc1c(OCCCN2CCOCC2)ccc2c1N=C(NC(=O)c1cnc(N)nc1)N1CCN=C21 | LCK | kinase activity, inhibitor | 1 µM | relative to: untreated control | remaining activity | 93%
COc1ccc(C#CC2=C[C@H]3C[C@@]4(OC(=O)C=C24)[C@H]2CC[C@H](C(OC)OC)N32)cc1 | LCK | enzyme activity, inhibitor | 10 µM |  | inhibition | -17%
